Results from different studies.
Each line is one published result; not all experiments were run side by side. Numbers after ± are the reported error.
Methyl-accepting chemotaxis protein CtaA sensing domain: Methyl-accepting chemotaxis protein CtaA, sensing domain (Pseudomonas fluorescens, UniProt Q3K7T6)
NPFFR1: Neuropeptide FF receptor 1 (NPFFR1, Homo sapiens, UniProt Q9GZQ6)
IDE: Insulin-degrading enzyme (IDE, Homo sapiens, UniProt P14735)
Neuropeptide FF receptor 2: Neuropeptide FF receptor 2 (Homo sapiens, UniProt Q9Y5X5)
Methyl-accepting chemotaxis protein CtaA: Methyl-accepting chemotaxis protein CtaA (Pseudomonas fluorescens, UniProt Q3K7T6)
PLA2G6: 85/88 kDa calcium-independent phospholipase A2 (PLA2G6, Homo sapiens, UniProt O60733)
WDR5/DCAF1: WDR5/DCAF1 (Homo sapiens, UniProt P61964+Q9Y4B6)
KCNQ3/KCNQ2: Voltage-gated potassium channel, KQT; KCNQ2(Kv7.2)/KCNQ3(Kv7.3) (KCNQ3/KCNQ2, Homo sapiens, UniProt O43525+O43526)

With O=C(CSc1nnc(NCc2ccccc2)s1)NCC1CCCCC1 the Kb was 2.06 ± 0.17 µM (Glutamate NMDA receptor; Grin1/Grin2a (Grin1/Grin2a, Rattus norvegicus, UniProt P35439+Q00959); ion current, antagonist, two-electrode voltage clamp; Xenopus laevis oocytes; Schild plot, slope fixed unity).
With O=C(O)c1cc(NC(=O)C2CC2c2ccccc2)ccc1O (stereo not drawn) the Kd was 2.5 µM (GTPase KRas (KRAS, Homo sapiens, UniProt P01116, G12D); microscale thermophoresis; second low-affinity site, with: GNP-bound).
For CC(C)C[C@H](N)C(=O)O, the Kd was 7.4 ± 1.9 µM (Methyl-accepting chemotaxis protein CtaA sensing domain; binding, thermal shift, curve fitting).
The Kb of COc1ccc(CN[C@H]2C[C@@H](C(=O)NCCc3ccc(NC(C)=O)cc3)N(Cc3ccccc3Cl)C2)cc1 is reported as 2.51 ± 0.08 µM (NPFFR1; calcium mobilization, antagonist; CHO; 15 min, with: NPFF).
For O=S(=O)(Nc1cccn(O)c1=S)C1CC1, the Ki was 45 µM (IDE; substrate degradation, inhibitor; mean of insulin, Aβ, substrate V).
For COc1ccc(CN[C@H]2C[C@@H](C(=O)NCCc3ccc(C(C)=O)cc3)N(Cc3ccccc3Cl)C2)cc1, the Kb was over 10 µM (Neuropeptide FF receptor 2; calcium signal, antagonist, fluorescence).
N[C@@H](CO)C(=O)O gave a Kd of 13 ± 1 µM (Methyl-accepting chemotaxis protein CtaA; binding, ITC; melting temperature).
Cc1cc(NS(=O)(=O)c2cccs2)c(=S)n(O)c1 gave a Ki of 11 µM (IDE; substrate degradation, fluorescence polarisation; mean of physiological substrates).
Cc1nc(-c2ccc(OCC(C)C)c(C#N)c2)sc1C(=O)NC1CCOCC1 gave an EC50 of 5.2 µM (Grm2/Grm4 (Rattus norvegicus, UniProt P31421+P31423); positive allosteric modulator, thallium flux; HEK293 with GIRK; with: EC20 glutamate).
The Kd of CC(C)[C@H](N)C(=O)O is reported as 4 ± 0.4 µM (Methyl-accepting chemotaxis protein CtaA sensing domain; binding, thermal shift, zero heat capacity).
For CCC[C@@H]1OC(=O)[C@@H]1CCCc1ccc(OC)cc1 (racemic), the XI(50) was 0.038 mole fraction (PLA2G6; enzyme activity, inhibitor, mixed micelle; 50% inhibition).
Nc1nc2c(ncn2[C@@H]2O[C@H](COP(=O)(O)OP(=O)(O)OP(=O)(O)O)[C@@H](O)[C@H]2O)c(=O)[nH]1 gave a Kd of 216 ± 74 µM (tRNA(His) guanylyltransferase (THG1, Saccharomyces cerevisiae, UniProt P53215, E78A); nucleotidyl transfer, substrate, single-turnover kinetics; pH 7.5, room temperature, with: ppp-tRNA(His)).
With COc1ccc(CN[C@H]2C[C@@H](C(=O)NCCc3ccc(F)cc3)N(Cc3ccccc3Cl)C2)cc1 the Kb was over 10 µM (Neuropeptide FF receptor 2; calcium signal, antagonist, fluorescence).
With C[C@@H]1CN(c2ccc(-c3cc(C(=O)NCCOCCOCCOCCOCCOCCOCCOCCOCCOCCNC(=O)/C=C/c4[nH]cc(C(=O)N[C@@H](CC(N)=O)c5ccc(F)c(Cl)c5)c4-c4ccc(Cl)cc4F)ccc3F)cc2NC(=O)c2c[nH]c(=O)cc2C(F)(F)F)C[C@H](C)N1C the DC50 was 0.0402 ± 0.0121 µM (WDR5/DCAF1; degrader, measured: HiBiT-WDR5; MV4-11 expressing HiBiT-WDR5; 24 h).
The Ki of O=S(=O)(Nc1ccn(O)c(=S)c1)c1cccs1 is reported as 15 µM (IDE; substrate degradation, fluorescence polarisation; mean of physiological substrates).
The EC50 of Nc1ncnc2c1ncn2[C@@H]1O[C@H](COP(=O)(O)OP(=O)(O)OC[C@H]2O[C@@H](O)C(O)[C@H]2O)C(O)[C@@H]1OP(=O)(O)O (stereo partly drawn) is reported as 85 ± 8 µM (TRPM2 (Nematostella vectensis, UniProt A7T1N0, Y264A); channel activation, activator, inside-out patch clamp; Y264A mutant, currents not saturated, with: 125 µM Ca2+ and 2.5 µM PIP2).
With C[C@H](N)C(=O)O the Kd was 7.1 ± 0.4 µM (Methyl-accepting chemotaxis protein CtaA; binding, ITC).
The EC50 of CCCC(C)O (stereo not drawn) is reported as 32.7 ppm (Or22a (Drosophila melanogaster, UniProt P81909); neuronal calcium response, agonist, in vivo calcium imaging; antennal neurons; headspace concentration, partial maximum).
With COc1ccc(CN[C@H]2C[C@@H](C(=O)NCCc3ccc(N(C)C)cc3)N(Cc3ccccc3Cl)C2)cc1 the Kb was 1.2 ± 0.25 µM (NPFFR1; calcium mobilization, antagonist; CHO; 15 min, with: NPFF).
The IC50 of O=c1[nH]c2ccccc2n1C1CCN(CCCC(c2ccc(F)cc2)c2ccc(F)cc2)CC1 is reported as 5.3 ± 2.6 µM (ABCC1 (Homo sapiens, UniProt P33527); efflux, inhibitor, flow cytometry; SupT1 cells overexpressing ABCC1; with: JC-1 500 nM).
CCOC(=O)Nc1ccc(SCc2ccccn2)nc1N gave an EC50 of over 10 µM (KCNQ3/KCNQ2; thallium flux, opener, fluorescence thallium flux; HEK293 expressing KV7.2/3; 30 min).
For Nc1ncnc2c1ncn2[C@@H]1O[C@H](COP(=O)(O)O)[C@@H](O)[C@H]1O, the EC50 was 0.95 µM (5'-AMP-activated protein kinase subunit gamma-1, with alpha1 beta2 (PRKAG1, Homo sapiens, UniProt P54619); conformational change, AlphaScreen; α1β2γ1 AMPK).
For C[C@@H]1CN(c2ccc(-c3cc(C(=O)NCCOCCOCCOCCOCCOCCOCCNC(=O)/C=C/c4[nH]cc(C(=O)N[C@@H](CC(N)=O)c5ccc(F)c(Cl)c5)c4-c4ccc(Cl)cc4F)ccc3F)cc2NC(=O)c2ccc(F)cc2C(F)(F)F)C[C@H](C)N1C, the DC50 was 0.054 ± 0.018 µM (WDR5/DCAF1; degrader, measured: HiBiT-WDR5; MV4-11 expressing HiBiT-WDR5; 24 h).
The Ki of NS(=O)(=O)c1cccn(O)c1=S is reported as 58 µM (IDE; substrate degradation, fluorescence polarisation; mean of physiological substrates).
Cc1cc(NC(=O)CS(=O)(=O)c2cn(Cc3ccccc3Cl)c3ccccc23)no1 has an EC50 of over 13 µM (Chrm1 (Rattus norvegicus, UniProt P08482); calcium signal, agonist).
COC(=O)c1ccc2c(C(CC(F)(F)F)c3cccs3)c(-c3ccccc3)[nH]c2c1 (single isomer, unassigned; (-)) has an EC50 of 0.416 ± 0.167 µM (CNR1 (Homo sapiens, UniProt P21554); agonist; compound alone).
The Ki of Cn1ccc(S(=O)(=O)Nc2cccn(O)c2=S)n1 is reported as 11 µM (IDE; substrate degradation, fluorescence polarisation; mean of physiological substrates).
Nc1ncnc2c1ncn2[C@@H]1O[C@H](COP(=O)(O)OP(=O)(O)OP(=O)(O)O)[C@@H](O)[C@H]1O gave a Kd of 4000 ± 1000 µM (tRNA(His) guanylyltransferase (THG1, Saccharomyces cerevisiae, UniProt P53215, K44A); tRNA(His) adenylylation, substrate, single-turnover kinetics; pH 6.0, room temperature, with: p-tRNA(His)).
For CCOC(=O)Nc1ccc(SCc2cc(OC)cc(OC)c2)nc1N, the EC50 was over 10 µM (KCNQ3/KCNQ2; thallium flux, opener, fluorescence thallium flux; HEK293 expressing KV7.2/3; 30 min).
With O=S(=O)(Nc1cccn(O)c1=S)c1cccs1 the Ki was 9 µM (IDE; substrate degradation, inhibitor; mean of insulin, Aβ, substrate V).
CC(C)(CC(=O)N1CCCC1)NCC(=O)N1C[C@@H](F)C[C@H]1C#N has an EC50 of 0.249 µM (DPP4 (Homo sapiens, UniProt P27487); enzyme activity, inhibitor; Chinese type 2 diabetes patients, plasma; Emax model, multiple doses).
For CNC(=O)[C@@H]1C[C@H](NCc2ccc(OC)cc2)CN1Cc1ccccc1Cl, the Kb was over 10 µM (NPFFR1; calcium mobilization, antagonist; CHO; 15 min, with: NPFF).
With CCC[C@H]1OC(=O)[C@@H]1CCCc1ccc2ccccc2c1 (racemic) the XI(50) was 0.0003 mole fraction (PLA2G6; enzyme activity, inhibitor, mixed micelle; 50% inhibition).
CNC(=O)c1ccc(CCNC(=O)[C@@H]2C[C@H](NCc3ccc(OC)cc3)CN2Cc2ccccc2Cl)cc1 has a Kb of over 10 µM (NPFFR1; calcium mobilization, antagonist; CHO; 15 min, with: NPFF).
Cc1csc(S(=O)(=O)Nc2cccn(O)c2=S)c1 gave a Ki of 11 µM (IDE; substrate degradation, fluorescence polarisation; mean of physiological substrates).
With CCC[C@H]1OC(=O)[C@@H]1CCCCc1ccccc1 (racemic) the XI(50) was 2.1e-06 mole fraction (PLA2G6; enzyme activity, inhibitor, mixed micelle; 50% inhibition).
With O=C(Nc1cccn(O)c1=S)c1ccccc1 the Ki was 57 µM (IDE; substrate degradation, inhibitor; mean of insulin, Aβ, substrate V).
CCC[C@@H]1OC(=O)[C@@H]1CCCCc1ccc2ccccc2c1 (racemic) gave an XI(50) of 0.0021 mole fraction (PLA2G6; enzyme activity, inhibitor, lipidomics mixed micelle).
The EC50 of Cc1cccc(Oc2cc(Oc3cccc(C)n3)cc(Oc3cccc(C)n3)c2)n1 is reported as about 0.058 µM (NLR family member X1 (Nlrx1, Mus musculus, UniProt Q3TL44); thermal stabilisation, CETSA; mouse splenocytes; 3 h).
